Literature values as cited in several papers.
Each line is one published result; not all experiments were run side by side. ± gives the spread as reported. ≈ marks a conversion by molar mass, not a printed value.
dapA: 4-hydroxy-tetrahydrodipicolinate synthase (dapA, Escherichia coli K-12, UniProt P0A6L2)
Chain of UniProt P0A6L2 (whole entry, looked up): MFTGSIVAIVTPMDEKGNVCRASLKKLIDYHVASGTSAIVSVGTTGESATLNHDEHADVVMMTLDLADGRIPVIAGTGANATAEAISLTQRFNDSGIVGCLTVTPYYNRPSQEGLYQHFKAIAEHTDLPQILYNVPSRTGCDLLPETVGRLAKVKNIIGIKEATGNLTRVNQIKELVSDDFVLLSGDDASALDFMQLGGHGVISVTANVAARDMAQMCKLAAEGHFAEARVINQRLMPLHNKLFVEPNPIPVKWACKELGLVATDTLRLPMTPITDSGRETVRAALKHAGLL
Chain of UniProt P59676 (whole entry, looked up): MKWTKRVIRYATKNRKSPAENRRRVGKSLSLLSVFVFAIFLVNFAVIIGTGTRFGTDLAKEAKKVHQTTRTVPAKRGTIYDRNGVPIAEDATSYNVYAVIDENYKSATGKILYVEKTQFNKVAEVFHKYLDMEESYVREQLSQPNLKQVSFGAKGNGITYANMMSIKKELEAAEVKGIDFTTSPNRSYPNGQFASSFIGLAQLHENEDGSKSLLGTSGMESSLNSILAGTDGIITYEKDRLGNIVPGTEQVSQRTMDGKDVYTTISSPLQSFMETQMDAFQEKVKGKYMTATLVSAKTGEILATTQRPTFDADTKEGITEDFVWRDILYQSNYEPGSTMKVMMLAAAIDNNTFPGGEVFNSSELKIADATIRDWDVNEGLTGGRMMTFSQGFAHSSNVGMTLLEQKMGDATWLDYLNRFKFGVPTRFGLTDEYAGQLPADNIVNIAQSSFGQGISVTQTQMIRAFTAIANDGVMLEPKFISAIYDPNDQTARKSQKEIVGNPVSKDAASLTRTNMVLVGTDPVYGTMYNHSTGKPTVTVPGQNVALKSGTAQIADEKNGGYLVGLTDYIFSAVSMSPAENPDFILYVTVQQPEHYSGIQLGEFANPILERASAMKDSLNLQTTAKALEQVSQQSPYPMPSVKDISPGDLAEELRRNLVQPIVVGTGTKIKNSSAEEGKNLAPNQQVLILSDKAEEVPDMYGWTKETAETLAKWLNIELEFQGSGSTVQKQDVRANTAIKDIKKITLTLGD

OCCN1CCN(CCC=C2c3ccccc3Sc3ccc(C(F)(F)F)cc32)CC1
mRNA fold change (MCF7; microarray, refers to: BHLHE40; concentration not given; baseline: DMSO): 2.19

CC(=O)C(=O)O
Km (dapA; substrate, coupled): 260 ± 30 µM

COc1ccc(-c2ccn(CC[C@](C)(C(=O)NO)S(C)(=O)=O)c(=O)c2)c(F)c1
MIC (Pseudomonas aeruginosa; efflux-pump mutant): 0.018 µM (≈ 7.42 ng/mL)

CCN(CC)CCO[C@H]1CC[C@@]2(C)C(=CC[C@@H]3[C@@H]2CC[C@]2(C)C(=O)CC[C@@H]32)C1
EC50 (dengue virus; viral replication; A549 replicon cells): 6.2 µM

CC(O)(C(F)F)C(NC(=O)c1ccc(C#CC#Cc2ccc(N)cc2)cc1)C(=O)NO (centres unmarked)
residence time (Escherichia coli LpxC): ~12 h

C=C(C)[C@@H](CC=C(C)C)C[C@@]12C[C@@H](CC=C(C)C)C(C)(C)[C@@](CC=C(C)C)(C(=O)C(C(=O)c3ccc(O)c(O)c3)=C1O)C2=O
IC50 (histone acetyltransferases): ~5 µM

O=C(O)c1cccc(C(=O)O)n1
inhibition (dapA; coupled; 20 mM): 76%

CC1(C)S[C@@H]2[C@H](NC(=O)Cc3ccccc3)C(=O)N2[C@H]1C(=O)O
kinact/Ki (Penicillin-binding protein 2X (Streptococcus pneumoniae R6, UniProt P59676); inhibitor): 200000 M⁻¹ s⁻¹
